Experimental data gathered from unrelated publications.
Lines come from different studies, so protocols differ. ± marks the error that the study gave.
Caspase-2: Caspase-2 (Homo sapiens, UniProt P42575)
SLC7A5: Large neutral amino acids transporter small subunit 1 (SLC7A5, Homo sapiens, UniProt Q01650)
OGT: UDP-N-acetylglucosamine--peptide N-acetylglucosaminyltransferase 110 kDa subunit (OGT, Homo sapiens, UniProt O15294)

Compound = C=C(NC(=O)C(=C)NC(=O)c1csc(C2=NC3c4csc(n4)C4NC(=O)c5csc(n5)C(C(C)(O)C(C)O)NC(=O)C5CSC(=N5)C(=CC)NC(=O)C(C(C)O)NC(=O)c5csc(n5)C3(CC2)NC(=O)C(=CC)NC(=O)C(=C)NC(=O)C(C)NC(=O)C(C(C)CC)NC2C=Cc3c(C(C)O)cc(nc3C2O)C(=O)OC4C)n1)C(N)=O (stereo not shown); target or system = PSMB5 (Homo sapiens, UniProt P28074); assay = chymotrypsin-like activity, inhibitor; test system = purified 20S proteasome; conditions = 15 min preincubation, 37 °C, together with: Suc-Leu-Leu-Val-Tyr-AMC substrate; quantity = IC50; result = 0.25 ± 0.02 µM
Compound = CC[C@H](C)[C@H](NC(C)=O)C(=O)N[C@H](C(=O)N[C@H](C(=O)N[C@@H](CCCCN)C(=O)N[C@H](C=O)CC(=O)O)C(C)C)[C@@H](C)O; target or system = Caspase-2; assay = enzyme activity, inhibitor, fluorescence; conditions = pH 6.5; quantity = Ki; result = 0.398 µM
Compound = CO[C@@H](C[C@H]1C(C)=CC[C@@H]2[C@]3(C)C[C@H](O[C@@H]4O[C@@H](C)[C@H](O)[C@@H](O)[C@H]4O)[C@@H](O)C(C)(C)[C@H]3CC[C@]21C)[C@H](N)C(=O)O; target or system = SLC7A5; assay = transporter uptake; quantity = IC50; result = 0.08 µM
Compound = CNC(=O)CNc1cnc2ccc(-c3ccc(OC)c(OC)c3)cc2n1; target or system = PI4KB (Homo sapiens, UniProt Q9UBF8); assay = enzyme activity, inhibitor; quantity = IC50; result = ~0.09 µM
Compound = CC(=O)N[C@@H](Cc1c[nH]c2ccccc12)C(=O)N[C@H]1CSSC[C@@H](C(=O)N[C@H](C(N)=O)[C@@H](C)O)NC(=O)[C@H](CCCNC(=N)N)NC(=O)[C@H](Cc2c[nH]cn2)NC(=O)[C@H](C)NC(=O)CNC(=O)[C@H](Cc2c[nH]c3ccccc23)NC(=O)[C@H](CC(=O)O)NC(=O)[C@H](CCC(N)=O)NC(=O)[C@H](Cc2c[nH]c3ccccc23)NC(=O)[C@H](C(C)C)NC1=O; target or system = Complement C3 (Homo sapiens, UniProt P01024); assay = C3b formation, ELISA; test system = normal human serum; conditions = together with: LPS-coated plate; quantity = IC50; result = 0.29 µM
Compound = N[C@@H](Cc1c[nH]c2ccc(OCc3ccccc3-c3ccsc3)cc12)C(=O)O; target or system = SLC7A5; assay = transporter uptake, inhibitor, radiometric; quantity = IC50; result = 5.5 µM
Compound = O=C(O)C1CC(=O)N(CCC23CC4CC(CC(C4)C2)C3)C(=Nc2ccc(Cl)cc2)S1 (stereo not shown); target or system = OGT; assay = enzyme activity, inhibitor; conditions = together with: UDP-GlcNAz, Nup62 substrate; quantity = IC50; result = 19.7 µM
Compound = CC(=O)N[C@H](C(=O)NCC(=O)N[C@@H](CCCCN)C(=O)N[C@H](C=O)CC(=O)O)[C@@H](C)O; target or system = Caspase-2; assay = enzyme activity, inhibitor, fluorescence; conditions = pH 6.5; quantity = Ki; result = 11 µM
Compound = N#C/C(C(=O)c1ccc(Cl)cc1Cl)=C1\NC(=O)c2ccccc2N1; target or system = DYNC2H1 (Homo sapiens, UniProt Q8NCM8); assay = ATPase activity, inhibitor; quantity = IC50; result = 55 µM
Compound = C[C@]12CC[C@@H]3c4ccc(OCc5ccccc5)cc4CC[C@H]3[C@@H]1[C@H](OCCCO)CC2=O; target or system = HSD17B1 (Homo sapiens, UniProt P14061); assay = enzyme activity, inhibitor, radiometric; quantity = IC50; result = 0.78 to 1.5 µM
Compound = O=C(Nc1ccccc1Nc1ccccc1)c1cccnc1C(F)(F)F; target or system = Succinate dehydrogenase complex (Sus scrofa, UniProt A5GZW8+D0VWV4+Q007T0+Q0QF01); assay = enzyme activity, inhibitor, double-antibody sandwich ELISA; quantity = IC50; result = 10.5 µM
Compound = COc1cc(CNC(=O)C[C@H](C)CCC=C(C)C)ccc1OCc1cn(-c2ccc([N+](=O)[O-])cc2)nn1; target or system = ACHN; assay = SRB; conditions = 10 µM, 48 h; quantity = growth percent; result = 72.7%
Compound = O=c1ccn([C@@H]2O[C@H](COP(=O)(O)CP(=O)(O)O)[C@@H](O)[C@H]2O)c(=O)[nH]1; target or system = OGT; assay = enzyme activity, inhibitor, radiometric; quantity = IC50; result = 9 µM
Compound = COc1cc(CNC(=O)C[C@H](C)CCC=C(C)C)ccc1OCc1cn(-c2ccccc2F)nn1; target or system = EKVX; assay = SRB; conditions = 10 µM, 48 h; quantity = growth percent; result = 78.3%
Compound = O=C(COCc1ccccc1)N[C@@H](Cc1cn(CCNC(=O)c2ccc(S[C@@H]3O[C@H](CO)[C@H](O)[C@H](O)[C@H]3O)cc2)nn1)C(=O)NCCO; target or system = lecA (Pseudomonas aeruginosa, UniProt Q05097); assay = ligand displacement, FP; quantity = IC50; result = 60.7 µM
Compound = N=C(N)NCCC[C@@H]1NC(=O)[C@H](CCCCNC(=O)CC[C@H](NC(=O)CC[C@H](NC(=O)CN2CCN(CC(=O)O)CCN(CC(=O)O)CCN(CC(=O)O)CC2)C(=O)N[C@@H](CCC(=O)NCCCC[C@@H]2NC(=O)[C@@H](Cc3ccccc3)NC(=O)[C@H](CC(=O)O)NC(=O)CNC(=O)[C@H](CCCNC(=N)N)NC2=O)C(=O)NCCCC[C@@H]2NC(=O)[C@@H](Cc3ccccc3)NC(=O)[C@H](CC(=O)O)NC(=O)CNC(=O)[C@H](CCCNC(=N)N)NC2=O)C(=O)NCCCC[C@@H]2NC(=O)[C@@H](Cc3ccccc3)NC(=O)[C@H](CC(=O)O)NC(=O)CNC(=O)[C@H](CCCNC(=N)N)NC2=O)NC(=O)[C@@H](Cc2ccccc2)NC(=O)[C@H](CC(=O)O)NC(=O)CNC1=O [indium-111 labelled]; test system = female athymic nu/nu mice, spleen; conditions = intravenous, 111 kBq, 24 h; quantity = tissue uptake; result = 1.15 ± 0.84 %ID/g
Compound = CC(C)S(=O)(=O)c1ccc(S(=O)(=O)C(C)C)c(O)c(=O)c1O; target or system = Ribonuclease HI (rnhA, Escherichia coli, UniProt P0A7Y4); assay = enzyme activity, inhibitor; quantity = IC50; result = 90 µM
Compound = Oc1ccc(CCC(O)CC(O)CCc2ccc(O)cc2)cc1 (stereo not shown); target or system = Maoa (Rattus norvegicus, UniProt P21396); assay = enzyme activity, inhibitor; conditions = together with: 1 mM serotonin substrate; quantity = IC50; result = 400 µM
Compound = Cc1ccc(CNC(=O)C(CCc2ccccc2)NC(=O)C(NC(=O)Cc2cccc(Oc3ccccc3)c2)C(C)O)cc1 (stereo not shown); target or system = Proteasome subunit beta type-3/PSMB7 (Homo sapiens, UniProt P49720+Q99436); assay = inhibitor; quantity = IC50; result = > 100 µM

Some of these lines once more:
Compound = CC[C@H](C)[C@H](NC(C)=O)C(=O)N[C@H](C(=O)N[C@H](C(=O)N[C@@H](CCCCN)C(=O)N[C@H](C=O)CC(=O)O)C(C)C)[C@@H](C)O; target or system = Caspase-2; assay = enzyme activity, inhibitor, fluorescence; conditions = pH 6.5; quantity = Ki; result = 0.398 µM
